Published values pooled from the literature.
Each numbered part is a random draw from the data of one study; scales do not carry over between parts. “And” joins repeats or separate records; there may be more than shown.

Set 1 — measurement: inhibition
Compound: CC(C)=CCN1C(=O)C(O)(C(=O)O)Oc2cc(F)ccc21 (stereo not drawn)
Arabidopsis thaliana; hypocotyl length; Col-0, seedlings; 50 µg/mL: 13%
Setaria viridis; fresh weight; 150 g ai/ha, pre-emergence treatment: 86.5% and 86.4% and 88.4%
Triticum aestivum; fresh weight; soil surface spray, 150 g ai/ha, 21 days, pre-emergence crop safety: 11.5% and 12% and 12.2%
Arabidopsis thaliana; hypocotyl length; Col-0; 6.25 µg/mL, 7 days, seed germination, dark: 3.9%
Arabidopsis thaliana; root length; Col-0, seedlings; 100 µg/mL: 41%
Arabidopsis thaliana; root length; Col-0; 50.0 µg/mL, 7 days, seed germination, dark: 30.9%
Eclipta prostrata; fresh weight; 150 g ai/ha, post-emergence treatment: 50.4% and 48.9%
Arabidopsis thaliana; root length; Col-0; 6.25 µg/mL, 7 days, seed germination, dark: 11.9%
Arabidopsis thaliana; root length; Col-0, seedlings; 12.5 µg/mL; reference: water control: 12.6%
Arabidopsis thaliana; hypocotyl length; Col-0, seedlings; 3.125 µg/mL: -1.39%
Oryza sativa; fresh weight; soil surface spray, 150 g ai/ha, 21 days, pre-emergence crop safety: 8% and 7% and 9.3%
Alopecurus japonicus; fresh weight; 150 g ai/ha, pre-emergence treatment: 65.1% and 65% and 62.8%
Echinochloa crus-galli; fresh weight; 150 g ai/ha, post-emergence treatment: 40.5% and 42.9% and 41.6%
Arabidopsis thaliana; hypocotyl length; Col-0, seedlings; 25 µg/mL: 11.8%

Set 2 — medium: plasma; route: oral; measurement: bioavailability
SMILES: Cc1ccc(O)c(C)c1-c1cnc2[nH]c(-c3cnc(N4CCC5(CC4)CC(N4CCN(c6ccc(N[C@H]7CCC(=O)NC7=O)cc6F)CC4)CO5)nc3)cc2c1C#N (single isomer, unassigned)
female CD-1 mouse; 40 mg/kg: 91.3%
male cynomolgus monkey; 10 mg/kg: 20.5%
male beagle dog; 5 mg/kg: 67.9%
male Sprague-Dawley rat; 20 mg/kg: 166%

Set 3 — read-out: thermal unfolding; method: differential scanning fluorimetry; concentration: 5.5 µM; direction: higher = more unfolded; measurement: SYPRO Orange fluorescence
SMILES: C[C@@H]1CN(c2ccc(-c3cc(C(=O)NCCOCCOCCOCCOCCNC(=O)/C=C/c4[nH]cc(C(=O)N[C@@H](CC(N)=O)c5ccc(F)c(Cl)c5)c4-c4ccc(Cl)cc4F)ccc3F)cc2NC(=O)c2c[nH]c(=O)cc2C(F)(F)F)C[C@H](C)N1C
WDR5: WD repeat-containing protein 5 (WDR5, Homo sapiens, UniProt P61964)
DCAF1: DDB1- and CUL4-associated factor 1 (DCAF1, Homo sapiens, UniProt Q9Y4B6)
UniProt Q9Y4B6, sequence (whole entry, looked up): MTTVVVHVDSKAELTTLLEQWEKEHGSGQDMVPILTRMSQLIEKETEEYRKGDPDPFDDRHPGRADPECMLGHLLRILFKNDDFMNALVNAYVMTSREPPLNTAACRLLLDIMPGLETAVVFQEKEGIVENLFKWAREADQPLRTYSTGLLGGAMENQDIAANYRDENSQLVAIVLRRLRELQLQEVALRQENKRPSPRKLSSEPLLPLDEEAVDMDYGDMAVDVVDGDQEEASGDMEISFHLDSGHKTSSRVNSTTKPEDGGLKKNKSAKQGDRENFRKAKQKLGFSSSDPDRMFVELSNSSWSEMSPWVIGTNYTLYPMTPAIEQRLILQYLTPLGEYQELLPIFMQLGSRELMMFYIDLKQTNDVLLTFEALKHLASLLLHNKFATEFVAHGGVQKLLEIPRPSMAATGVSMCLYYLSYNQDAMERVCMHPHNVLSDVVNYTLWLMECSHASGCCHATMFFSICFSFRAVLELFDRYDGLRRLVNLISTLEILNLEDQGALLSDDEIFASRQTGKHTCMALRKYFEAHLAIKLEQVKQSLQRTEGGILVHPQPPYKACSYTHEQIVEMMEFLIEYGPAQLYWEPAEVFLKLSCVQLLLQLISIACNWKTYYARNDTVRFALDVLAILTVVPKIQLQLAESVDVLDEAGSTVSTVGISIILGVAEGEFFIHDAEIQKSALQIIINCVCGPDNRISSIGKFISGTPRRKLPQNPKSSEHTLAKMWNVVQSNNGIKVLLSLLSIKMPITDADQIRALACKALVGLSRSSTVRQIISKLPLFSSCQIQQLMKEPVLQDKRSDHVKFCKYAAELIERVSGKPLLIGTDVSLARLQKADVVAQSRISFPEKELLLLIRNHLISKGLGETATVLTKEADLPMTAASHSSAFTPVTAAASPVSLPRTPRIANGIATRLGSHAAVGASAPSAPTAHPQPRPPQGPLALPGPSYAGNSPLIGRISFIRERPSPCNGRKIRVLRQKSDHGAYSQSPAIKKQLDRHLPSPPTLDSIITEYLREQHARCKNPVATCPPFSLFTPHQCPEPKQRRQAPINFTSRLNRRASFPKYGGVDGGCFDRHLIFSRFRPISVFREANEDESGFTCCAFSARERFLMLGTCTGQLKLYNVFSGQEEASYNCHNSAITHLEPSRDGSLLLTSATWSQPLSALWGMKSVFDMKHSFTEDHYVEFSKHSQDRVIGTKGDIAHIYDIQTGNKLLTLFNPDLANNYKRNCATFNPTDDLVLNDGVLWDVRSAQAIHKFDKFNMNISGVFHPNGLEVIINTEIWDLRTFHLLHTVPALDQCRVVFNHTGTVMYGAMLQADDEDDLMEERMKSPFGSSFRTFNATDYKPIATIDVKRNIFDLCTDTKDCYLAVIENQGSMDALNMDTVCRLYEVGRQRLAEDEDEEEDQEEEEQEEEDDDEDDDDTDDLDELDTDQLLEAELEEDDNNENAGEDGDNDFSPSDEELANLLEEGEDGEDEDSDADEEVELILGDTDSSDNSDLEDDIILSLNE
WDR5; 90.81 °C: 50100 a.u.
DCAF1; 62.01 °C: 50100 a.u.
WDR5; 64.01 °C: 14000 a.u.
DCAF1; 39 °C: 11200 a.u.
DCAF1; 35.4 °C: 10300 a.u.
DCAF1; 70.61 °C: 55100 a.u.
DCAF1; 28.6 °C: 9160 a.u.
WDR5; 62.41 °C: 14700 a.u.

Set 4 — cell line: U-87 MG; concentration: concentration not given; reference: DMSO; measurement: log2 fold change
Compound: CCN1/C(=C/C=C2\CCCC(/C=C/C3=[N+](CC)c4ccccc4C3(C)C)=C2NCCCCCCCCN2CCC(Nc3nc4ccccc4n3Cc3ccc(F)cc3)CC2)C(C)(C)c2ccccc21
item: YPEL5 mRNA: 1.1
item: MYORG mRNA: -0.933
item: TUBB4B mRNA: -1.8
item: TNFSF14 mRNA: 4.69
item: DDIT4L mRNA: -2.5
item: PLB1 mRNA: -1.27
item: ERC2 mRNA: 3.19
item: CLSPN mRNA: -1.94
item: SLC19A1 mRNA: -1.04
item: RPS10-NUDT3 mRNA: 6.17
item: PHLDB1 mRNA: -1.4

Set 5 — measurement: tumour volume
Compound: Cc1ncsc1-c1ccc(C(CO)NC(=O)C2CC(O)CN2C(=O)C(C(C)C)n2cc(-c3ccc(COc4c(-c5c(C)c(F)cc6[nH]ncc56)c(C5CC5)cc5c(N6CC7CC6CN7)nc(OC6CCOCC6)nc45)cc3)nn2)cc1 (stereo not drawn)
mouse, PK-59 xenograft; 10 mg/kg, day 10: 313 mm3 and 351 mm3 and 239 mm3 and 339 mm3 and 413 mm3
HPAC xenograft, mouse; 30 mg/kg once weekly, day 4: 189 mm3 and 154 mm3 and 158 mm3 and 166 mm3 and 226 mm3
mouse, PK-59 xenograft; subcutaneous, 30 mg/kg once daily, day 11: 54 mm3 and 53.5 mm3 and 81.5 mm3 and 78.4 mm3 and 52.9 mm3
mouse, PK-59 xenograft; 10 mg/kg, day 0: 229 mm3 and 309 mm3 and 279 mm3 and 336 mm3 and 321 mm3
mouse, lung LXFA sample A PDX; 10 mg/kg twice weekly, day 13: 75.2 mm3 and 124 mm3 and 169 mm3 and 141 mm3 and 75 mm3 and 77.6 mm3 and 349 mm3 and 239 mm3
mouse, lung LXFA sample A PDX; 30 mg/kg twice weekly, day 2: 83.3 mm3 and 283 mm3 and 115 mm3 and 214 mm3 and 111 mm3 and 134 mm3 and 51.6 mm3 and 190 mm3
mouse, PK-59 xenograft; 0.3 mg/kg, day 14: 998 mm3 and 1200 mm3 and 1190 mm3 and 1160 mm3 and 1310 mm3

Set 6 — cell line: MDA-MB-468; read-out: cell viability; method: CellCounting-Lite; concentration: 2.743 nM; temperature: 37 °C; direction: higher = more viable cells; measurement: luminescence signal
CCn1cnc2c(NCc3nc4cc(Cl)c(Cl)cc4[nH]3)nc(N3CCN(C(=O)c4ccccc4)CC3)nc21: 451000 a.u. and 436000 a.u. and 480000 a.u.
CCn1cnc2c(NCc3nc4cc(Cl)c(Cl)cc4[nH]3)nc(N3CCN(C(=O)CNC(C)=O)CC3)nc21: 430000 a.u. and 412000 a.u. and 462000 a.u.
CCn1cnc2c(NCc3nc4cc(Cl)c(Cl)cc4[nH]3)nc(N3CCN(C(=O)c4ccncc4)CC3)nc21: 252000 a.u. and 205000 a.u. and 223000 a.u.
CCn1cnc2c(NCc3nc4cc(F)c(F)cc4[nH]3)nc(N3CCn4ncnc4C3)nc21: 395000 a.u. and 459000 a.u. and 456000 a.u.
CCn1cnc2c(NCc3nc4cc(Cl)c(Cl)cc4[nH]3)nc(N3CCC(NC(C)=O)CC3)nc21: 419000 a.u. and 450000 a.u. and 446000 a.u.
CC(=O)N1CCN(c2nc(NCc3nc4cc(Cl)c(Cl)cc4[nH]3)c3ncn(-c4cnn(C)c4)c3n2)CC1: 568000 a.u. and 528000 a.u. and 490000 a.u.
CCn1cnc2c(NCc3nc4cc(Cl)c(Cl)cc4[nH]3)nc(N3CCN(c4ccccn4)CC3)nc21: 458000 a.u. and 460000 a.u. and 504000 a.u.
CCn1cnc2c(NCc3nc4cc(Cl)c(Cl)cc4[nH]3)nc(N3CCN(Cc4ccncc4)CC3)nc21: 476000 a.u. and 462000 a.u. and 488000 a.u.
Cn1cc(-n2cnc3c(NCc4nc5cc(Cl)c(Cl)cc5[nH]4)nc(N4CCNCC4)nc32)cn1: 519000 a.u. and 587000 a.u. and 556000 a.u.

Set 7 — measurement: mRNA level ratio
Compound: COCCCCCCC1CC2C(CCC3(C)C(O)CCC23)c2ccc(O)cc21 (stereo not drawn)
SK-OV-3; microarray, item: ADAMTS8; 50 µM; reference: untreated: 1
SK-OV-3; microarray, item: CCL8; 50 µM; reference: untreated: 42.3
PANC-1; microarray, item: CCL8; 50 µM; reference: untreated: 31
PANC-1; DNA microarray, item: ACTB; 10 µM; reference: untreated cells: 0.851
A549; microarray, item: ADAMTS8; 10 µM; reference: untreated: 0.89
A549; microarray, item: ADAMTS8; 50 µM; reference: untreated: 0.345
A549; DNA microarray, item: GZMK; 50 µM; reference: untreated cells: 13.1
